Results of several laboratories.
B1: INF2 941-1249 (Homo sapiens, UniProt Q27J81-1); FITC label; sequence looked up; chain KQQLAEEEARRPRGEDGKPVRKGPGKQEEVCVIDALLADIRKGFQLRKTARGRGDTDGGSKAASMDPPRATEPVATSNPAGDPVGSTRCPASEPGLDATTASESRGWDLVDAVTPGPQPTLEQLEEGGPRPLERRSSWYVDASDVLTTEDPQCPQPLEGAWPVTLGDAQALKPLKFSSNQPPAAGSSRQDAKDPTSLLGVLQAEADSTSEGLEDAVHSRGARPPAAGPGGDEDEDEEDTAPESALDTSLDKSFSEDAVTDSSGSGTLPRARGRASKGTGKRRKKRPSRSQEEVPPDSDDNKTKKLCVIQ
B2: human catalase; sequence looked up; chain ADSRDPASDQMQHWKEQRAAQKADVLTTGAGNPVGDKLNVITVGPRGPLLVQDVVFTDEMAHFDRERIPERVVHAKGAGAFGYFEVTHDITKYSKAKVFEHIGKKTPIAVRFSTVAGESGSADTVRDPRGFAVKFYTEDGNWDLVGNNTPIFFIRDPILFPSFIHSQKRNPQTHLKDPDMVWDFWSLRPESLHQVSFLFSDRGIPDGHRHMNGYGSHTFKLVNANGEAVYCKFHYKTDQGIKNLSVEDAARLSQEDPDYGIRDLFNAIATGKYPSWTFYIQVMTFNQAETFPFNPFDLTKVWPHKDYPLIPVGKLVLNRNPVNYFAEVEQIAFDPSNMPPGIEASPDKMLQGRLFAYPDTHRHRLGPNYLHIPVNCPYRARVANYQRDGPMCMQDNQGGAPNYYPNSFGAPEQQPSALEHSIQYSGEVRRFNTANDDNVTQVRAFYVNVLNEEQRKRLCENIAGHLKDAQIFIQKKAVKNFTEVHPDYGSHIQALLDKYNAEKPKNAIHTFVQSGSHLAAREKANL
B3: ERRFI1 330-399 F352A (human, UniProt Q9UJM3); N-terminal FITC; sequence looked up; chain SRTPSPKSLPSYLNGVMPPTQSAAPDPKYVSSKALQRQNSEGSASKVPCILPIIENGKKVSSTHYYLLPE
B4: CRP mature R188A (Homo sapiens); chain QTDMSRKAFVFPKESDTSYVSLKAPLTKPLKAFTVCLHFYTELSSTRGYSIFSYATKRQDNEILIFWSKDIGYSFTVGGSEILFEVPEVTVAPVHICTSWESASGIVEFWVDGKPRVRKSLKKGYTVGAEASIILGQEQDSFGGNFEGSQSLVGDIGNVNMWDFVLSPDEINTIYLGGPFSPNVLNWAALKYEVQGEVFTKPQLWP
B5: ATG9 1-100 (Saccharomyces cerevisiae, UniProt Q12142); sequence looked up; chain MERDEYQLPNSHGKNTFLSRIFGLQSDEVNPSLNSQEMSNFPLPDIERGSSLLHSTNDSREDVDENDLRVPESDQGTSTEEEDEVDEEQVQAYAPQISDG
B6: MED1 1-566 (Saccharomyces cerevisiae, UniProt Q12321); chain MVEGDSYVETLDSMIELFKDYKPGSITLENITRLCQTLGLESFTEELSNELSRLSTASKIIVIDVDYNKKQDRIQDVKLVLASNFDNFDYFNQRDGEHEKSNILLNSLTKYPDLKAFHNNLKFLYLLDAYSHIESDSTSHNNGSSDKSLDSSNASFNNQGKLDLFKYFTELSHYIRQCFQDNCCDFKVRTNLNDKFGIYILTQGINGKEVPLAKIYLEENKSDSQYRFYEYIYSQETKSWINESAENFSNGISLVMEIVANAKESNYTDLIWFPEDFISPELIIDKVTCSSNSSSSPPIIDLFSNNNYNSRIQLMNDFTTKLINIKKFDISNDNLDLISEILKWVQWSRIVLQNVFKLVSTPSSNSNSSELEPDYQAPFSTSTKDKNSSTSNTEPIPRSNRHGSVVEASRRRRSSTNKSKRPSITEAMMLKEEGLQQFNLHEILSEPAIEEENGDSIKEHSTTMDGANDLGFTASVSNQENAGTDIVMEDHGVLQGTSQNYGTATADDADIEMKDVSSKPSKPESSVLQLIVSEDHIILDTISECNLYDDVKCWSKFIEKFQDIVS
B7: PSMA3 (Homo sapiens, UniProt P25788); chain MSSIGTGYDLSASTFSPDGRVFQVEYAMKAVENSSTAIGIRCKDGVVFGVEKLVLSKLYEEGSNKRLFNVDRHVGMAVAGLLADARSLADIAREEASNFRSNFGYNIPLKHLADRVAMYVHAYTLYSAVRPFGCSFMLGSYSVNDGAQLYMIDPSGVSYGYWGCAIGKARQAAKTEIEKLQMKEMTCRDIVKEVAKIIYIVHDEVKDKAFELELSWVGELTNGRHEIVPKDIREEAEKYAKESLKEEDESDDDNM
B8: Gspt2 2-632 (Mus musculus, UniProt Q149F3); sequence looked up; chain DLGSSSDSAPDCWDQVDMEAPGSAPSGDGIAPAAMAAAEAAEAEAQRKHLSLAFSSQLNIHAKPFVPSVSAAEFVPSFLPGSAQPPAPTASSCDETCIGGAGEPEGKRMEWGAPVEPSKDGPLVSWEGSSSVVTMELSEPVVENGEVEMALEESWELKEVSEAKPEASLGDAGPPEESVKEVMEEKEEVRKSKSVSIPSGAPKKEHVNVVFIGHVDAGKSTIGGQIMFLTGMVDRRTLEKYEREAKEKNRETWYLSWALDTNQEERDKGKTVEVGRAYFETEKKHFTILDAPGHKSFVPNMIGGASQADLAVLVISARKGEFETGFEKGGQTREHAMLAKTAGVKYLIVLINKMDDPTVDWSSERYEECKEKLVPFLKKVGFSPKKDIHFMPCSGLTGANIKEQSDFCPWYTGLPFIPYLDSLPNFNRSIDGPIRLPIVDKYKDMGTVVLGKLESGSIFKGQQLVMMPNKHSVEVLGIVSDDAETDFVAPGENLKIRLKGIEEEEILPGFILCEPSNLCHSGRTFDVQIVIIEHKSIICPGYNAVLHIHTCIEEVEITALISLVDKKSGEKSKTRPRFVKQDQVCIARLRTAGTICLETFKDFPQMGRFTLRDEGKTIAIGKVLKLVPEKD
B9: RAD52 K144A (Homo sapiens, UniProt P43351); sequence looked up; chain MSGTEEAILGGRDSHPAAGGGSVLCFGQCQYTAEEYQAIQKALRQRLGPEYISSRMAGGGQKVCYIEGHRVINLANEMFGYNGWAHSITQQNVDFVDLNNGKFYVGVCAFVRVQLKDGSYHEDVGYGVSEGLKSKALSLEKARAEAVTDGLKRALRSFGNALGNCILDKDYLRSLNKLPRQLPLEVDLTKAKRQDLEPSVEEARYNSCRPNMALGHPQLQQVTSPSRPSHAVIPADQDCSSRSLSSSAVESEATHQRKLRQKQLQQQFRERMEKQQVRVSTPSAEKSEAAPPAPPVTHSTPVTVSEPLLEKDFLAGVTQELIKTLEDNSEKWAVTPDAGDGVVKPSSRADPAQTSDTLALNNQMVTQNRTPHSVCHQKPQAKSGSWDLQTYSADQRTTGNWESHRKSQDMKKRKYDPS
B10: ND4 1-486 (Yarrowia lipolytica, UniProt Q9B6D6); sequence looked up; chain MFLTSILLSSLYLFNRILAWQGNVKHFYLFASNLLLLFIVVLYINFNTFSNSFQFNFELFNSLNPFGLSNSDISNGLLFGIDGLSLTFILLTVLLIPLTLLGNWYNINFNSNLYYTLVLAIGLVILLNFWALDYISFYILFEATLPLLFILIHIYGSSDSERASFYVLMFTLSGSLFMLLSIVVISIVLNTTNFINHNLFVLSLDLQTIIWLGLFIAIMVKTPLFPIHVWLPVVHSESPLAGSMILAGLILKLALYAILRLLLPLLCEAQILYTPMIYIISLLTIILTSLATLRQIDLKVIIAYSSISHMGIAILGVCSNTSLGIYGSIVLGVAHGFVSPALFLIVGGILYDRYHIRIVNYYKGLTTYMPQLATYIIILSFANIGTPLTGNFTGEFLSLQGGFIRNPIIGGISCISVLLAAIYQLKLTNKLTGGISSIYMHRTNDVTIREKFIMNILIISTLIIGICPQIMYNLLYWTVNNYIYII
B11: nlpI (Escherichia coli, UniProt P0AFB1); sequence looked up; chain CSNTSWRKSEVLAVPLQPTLQQEVILARMEQILASRALTDDERAQLLYERGVLYDSLGLRALARNDFSQALAIRPDMPEVFNYLGIYLTQAGNFDAAYEAFDSVLELDPTYNYAHLNRGIALYYGGRDKLAQDDLLAFYQDDPNDPFRSLWLYLAEQKLDEKQAKEVLKQHFEKSDKEQWGWNIVEFYLGNISEQTLMERLKADATDNTSLAEHLSETNFYLGKYYLSLGDLDSATALFKLAVANNVHNFVEHRYALLELSLLGQDQDDLAESDQQ
B12: SIR4 1150-1358 (Saccharomyces cerevisiae, UniProt P11978); sequence looked up; chain KTLPEKKQFDSIFNSNKAKIIPGNGKHASENISLSFSRPASYGYFSVGKRVPIVEDRRVKQLDDITDSNTTEILTSVDVLGTHSQTGTQQSNMYTSTQKTELEIDNKDSVTECSKDMKEDGLSFVDIVLSKAASALDEKEKQLAVANEIIRSLSDEVMRNEIRITSLQGDLTFTKKCLENARSQISEKDAKINKLMEKDFQVNKEIKPY
B13: CRYBA1 (Homo sapiens, UniProt P05813-1); sequence looked up; chain METQAEQQELETLPTTKMAQTNPTPGSLGPWKITIYDQENFQGKRMEFTSSCPNVSERSFDNVRSLKVESGAWIGYEHTSFCGQQFILERGEYPRWDAWSGSNAYHIERLMSFRPICSANHKESKMTIFEKENFIGRQWEISDDYPSLQAMGWFNNEVGSMKIQSGAWVCYQYPGYRGYQYILECDHHGGDYKHWREWGSHAQTSQIQSIRRIQQ
Sequence of UniProt Q9B6D3 (whole entry, looked up): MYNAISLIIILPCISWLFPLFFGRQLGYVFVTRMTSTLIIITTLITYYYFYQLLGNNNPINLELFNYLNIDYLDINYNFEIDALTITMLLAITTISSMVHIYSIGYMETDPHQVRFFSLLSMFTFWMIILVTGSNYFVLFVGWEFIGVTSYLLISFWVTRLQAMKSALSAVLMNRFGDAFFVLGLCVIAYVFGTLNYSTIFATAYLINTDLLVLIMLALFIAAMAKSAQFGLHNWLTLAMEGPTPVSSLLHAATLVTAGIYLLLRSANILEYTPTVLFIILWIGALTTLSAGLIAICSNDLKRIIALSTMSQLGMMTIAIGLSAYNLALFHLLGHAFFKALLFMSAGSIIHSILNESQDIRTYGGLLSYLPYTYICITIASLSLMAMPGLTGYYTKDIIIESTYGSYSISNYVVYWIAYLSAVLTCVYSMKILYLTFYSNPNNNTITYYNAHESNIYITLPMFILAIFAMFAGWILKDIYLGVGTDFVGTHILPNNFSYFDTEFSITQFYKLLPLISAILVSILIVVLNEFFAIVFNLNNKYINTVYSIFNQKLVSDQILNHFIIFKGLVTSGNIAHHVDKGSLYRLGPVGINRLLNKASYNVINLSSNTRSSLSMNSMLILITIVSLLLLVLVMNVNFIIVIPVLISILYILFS
Sequence of UniProt P45481 (whole entry, looked up): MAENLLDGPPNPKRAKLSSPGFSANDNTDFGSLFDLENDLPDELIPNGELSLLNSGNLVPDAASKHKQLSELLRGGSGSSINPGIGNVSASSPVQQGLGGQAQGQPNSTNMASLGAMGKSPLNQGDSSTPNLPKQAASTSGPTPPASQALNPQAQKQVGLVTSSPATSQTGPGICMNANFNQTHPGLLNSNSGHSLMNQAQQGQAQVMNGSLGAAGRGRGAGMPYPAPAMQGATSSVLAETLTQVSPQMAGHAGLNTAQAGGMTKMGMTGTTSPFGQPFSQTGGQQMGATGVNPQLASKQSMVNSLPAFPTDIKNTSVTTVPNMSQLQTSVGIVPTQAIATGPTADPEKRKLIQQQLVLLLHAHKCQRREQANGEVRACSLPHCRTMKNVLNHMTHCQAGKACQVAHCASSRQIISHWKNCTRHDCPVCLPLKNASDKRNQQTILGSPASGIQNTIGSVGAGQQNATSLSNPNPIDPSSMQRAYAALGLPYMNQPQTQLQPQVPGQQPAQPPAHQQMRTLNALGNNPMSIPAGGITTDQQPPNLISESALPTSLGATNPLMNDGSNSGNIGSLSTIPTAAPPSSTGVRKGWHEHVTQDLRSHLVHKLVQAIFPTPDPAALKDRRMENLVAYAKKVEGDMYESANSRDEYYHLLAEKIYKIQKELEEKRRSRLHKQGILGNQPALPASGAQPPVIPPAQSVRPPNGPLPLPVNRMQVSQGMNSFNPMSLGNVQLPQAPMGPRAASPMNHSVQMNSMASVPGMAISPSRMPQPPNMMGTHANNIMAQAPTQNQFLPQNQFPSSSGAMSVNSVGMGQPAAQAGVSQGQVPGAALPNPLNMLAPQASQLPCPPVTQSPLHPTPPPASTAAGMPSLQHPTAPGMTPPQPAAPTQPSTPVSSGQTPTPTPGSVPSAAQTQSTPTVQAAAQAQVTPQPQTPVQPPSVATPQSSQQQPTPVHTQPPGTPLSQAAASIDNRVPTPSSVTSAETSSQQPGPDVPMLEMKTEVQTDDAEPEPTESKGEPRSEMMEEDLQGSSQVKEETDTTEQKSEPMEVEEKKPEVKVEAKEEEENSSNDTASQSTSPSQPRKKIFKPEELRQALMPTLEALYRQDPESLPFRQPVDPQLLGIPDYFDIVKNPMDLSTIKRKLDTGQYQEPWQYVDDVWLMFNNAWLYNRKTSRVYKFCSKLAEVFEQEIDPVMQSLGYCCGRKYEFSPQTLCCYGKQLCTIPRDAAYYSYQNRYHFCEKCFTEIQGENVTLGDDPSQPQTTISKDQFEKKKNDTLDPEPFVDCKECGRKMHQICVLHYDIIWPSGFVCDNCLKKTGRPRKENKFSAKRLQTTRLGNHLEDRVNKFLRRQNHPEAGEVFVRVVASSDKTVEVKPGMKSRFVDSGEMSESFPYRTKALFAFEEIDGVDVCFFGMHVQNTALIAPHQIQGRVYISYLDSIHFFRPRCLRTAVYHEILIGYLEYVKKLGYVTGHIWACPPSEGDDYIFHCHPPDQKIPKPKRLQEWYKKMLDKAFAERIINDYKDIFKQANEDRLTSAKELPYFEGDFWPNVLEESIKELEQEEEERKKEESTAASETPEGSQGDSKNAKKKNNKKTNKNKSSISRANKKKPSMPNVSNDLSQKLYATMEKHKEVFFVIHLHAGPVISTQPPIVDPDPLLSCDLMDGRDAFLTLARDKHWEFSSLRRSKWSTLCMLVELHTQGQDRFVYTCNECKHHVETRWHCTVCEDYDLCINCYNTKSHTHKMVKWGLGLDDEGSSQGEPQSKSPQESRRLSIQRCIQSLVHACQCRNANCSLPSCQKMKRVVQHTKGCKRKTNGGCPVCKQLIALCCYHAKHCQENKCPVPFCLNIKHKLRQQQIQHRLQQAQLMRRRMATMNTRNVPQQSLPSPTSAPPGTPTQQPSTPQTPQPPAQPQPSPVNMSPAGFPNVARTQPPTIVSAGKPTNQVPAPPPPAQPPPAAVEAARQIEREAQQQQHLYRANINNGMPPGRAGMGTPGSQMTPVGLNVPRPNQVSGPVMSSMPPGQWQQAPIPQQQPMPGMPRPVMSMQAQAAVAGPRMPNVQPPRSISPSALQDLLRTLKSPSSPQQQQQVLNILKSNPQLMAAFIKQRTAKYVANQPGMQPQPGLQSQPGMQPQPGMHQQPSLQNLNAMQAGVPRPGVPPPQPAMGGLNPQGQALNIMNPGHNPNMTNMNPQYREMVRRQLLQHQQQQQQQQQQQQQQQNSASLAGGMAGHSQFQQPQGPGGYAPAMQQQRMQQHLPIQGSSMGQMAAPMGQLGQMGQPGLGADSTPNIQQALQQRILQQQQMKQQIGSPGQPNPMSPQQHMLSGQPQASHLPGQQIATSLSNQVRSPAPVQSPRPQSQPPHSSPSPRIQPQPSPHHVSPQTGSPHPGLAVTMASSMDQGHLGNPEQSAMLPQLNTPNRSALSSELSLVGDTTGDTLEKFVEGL
Sequence of UniProt Q92900 (whole entry, looked up): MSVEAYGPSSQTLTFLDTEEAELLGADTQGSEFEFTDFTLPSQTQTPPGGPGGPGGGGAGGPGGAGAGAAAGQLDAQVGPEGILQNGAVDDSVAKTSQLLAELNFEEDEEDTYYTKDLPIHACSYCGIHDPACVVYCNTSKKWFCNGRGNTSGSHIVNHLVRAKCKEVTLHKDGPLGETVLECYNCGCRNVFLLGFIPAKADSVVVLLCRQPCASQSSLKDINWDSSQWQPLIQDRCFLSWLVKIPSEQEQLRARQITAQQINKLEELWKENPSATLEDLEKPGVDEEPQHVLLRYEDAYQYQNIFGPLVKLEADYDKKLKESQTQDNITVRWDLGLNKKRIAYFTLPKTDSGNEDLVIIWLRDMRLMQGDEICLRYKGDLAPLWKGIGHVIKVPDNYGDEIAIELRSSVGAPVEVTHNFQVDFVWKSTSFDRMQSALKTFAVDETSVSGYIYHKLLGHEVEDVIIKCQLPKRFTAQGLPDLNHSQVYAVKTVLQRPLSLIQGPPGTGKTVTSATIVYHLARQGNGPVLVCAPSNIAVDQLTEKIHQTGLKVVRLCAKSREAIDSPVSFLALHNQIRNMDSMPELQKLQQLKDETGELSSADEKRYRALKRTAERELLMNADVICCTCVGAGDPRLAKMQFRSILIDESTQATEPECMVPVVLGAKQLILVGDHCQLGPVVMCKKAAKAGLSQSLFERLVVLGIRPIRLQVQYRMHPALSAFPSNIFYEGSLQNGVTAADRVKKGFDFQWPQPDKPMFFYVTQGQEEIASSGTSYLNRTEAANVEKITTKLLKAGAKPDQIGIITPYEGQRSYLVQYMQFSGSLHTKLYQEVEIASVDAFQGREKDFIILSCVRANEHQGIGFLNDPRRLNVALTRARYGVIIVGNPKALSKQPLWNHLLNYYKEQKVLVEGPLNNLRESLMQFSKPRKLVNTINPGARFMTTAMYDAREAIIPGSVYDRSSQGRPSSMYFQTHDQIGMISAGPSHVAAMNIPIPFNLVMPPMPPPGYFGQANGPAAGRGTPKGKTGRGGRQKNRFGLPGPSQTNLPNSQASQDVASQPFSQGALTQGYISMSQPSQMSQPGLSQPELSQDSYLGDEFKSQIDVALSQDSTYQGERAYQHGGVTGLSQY
Sequence of UniProt P06700 (whole entry, looked up): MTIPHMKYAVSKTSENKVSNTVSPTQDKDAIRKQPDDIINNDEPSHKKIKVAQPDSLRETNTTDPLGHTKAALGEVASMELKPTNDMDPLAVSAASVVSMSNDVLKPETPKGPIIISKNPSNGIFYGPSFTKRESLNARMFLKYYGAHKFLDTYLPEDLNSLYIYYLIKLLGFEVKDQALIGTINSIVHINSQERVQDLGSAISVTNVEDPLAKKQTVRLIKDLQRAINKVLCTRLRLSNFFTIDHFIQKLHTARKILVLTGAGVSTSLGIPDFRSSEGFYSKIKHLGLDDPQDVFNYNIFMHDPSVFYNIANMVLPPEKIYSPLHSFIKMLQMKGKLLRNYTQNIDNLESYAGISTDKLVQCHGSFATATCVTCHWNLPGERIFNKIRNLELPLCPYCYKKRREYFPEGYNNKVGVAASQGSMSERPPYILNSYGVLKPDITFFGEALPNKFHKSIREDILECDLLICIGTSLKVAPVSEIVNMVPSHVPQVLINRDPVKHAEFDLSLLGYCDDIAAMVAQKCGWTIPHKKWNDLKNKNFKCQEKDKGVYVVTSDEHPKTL
Sequence of UniProt Q969U7 (whole entry, looked up): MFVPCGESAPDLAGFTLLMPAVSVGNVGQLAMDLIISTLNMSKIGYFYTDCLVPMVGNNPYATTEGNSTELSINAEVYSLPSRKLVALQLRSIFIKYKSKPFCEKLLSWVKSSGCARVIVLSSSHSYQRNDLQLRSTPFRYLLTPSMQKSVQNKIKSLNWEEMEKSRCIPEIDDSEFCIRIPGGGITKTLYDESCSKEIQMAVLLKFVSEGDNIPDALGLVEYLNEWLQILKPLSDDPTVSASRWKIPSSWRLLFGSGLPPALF

`B1 (INF2 941-1249)` — result for binding: “binds” (INF2 fragment 20-24 replaced by GSGSG (Homo sapiens); fluorescence polarisation; apparent).
`B2 (human catalase)` — result for “log2 fold change”: -0.32 (PP6C (human); co-immunoprecipitation, IP-MS; CYB5R4 knockout cells; concentration not given; reference: CYB5R4 knockout over parental).
For `B3 (ERRFI1 330-399 F352A)`, binding read “binds” (EGFR 696-1022 (Homo sapiens, UniProt P00533); fluorescence polarization; apparent).
Under binding, `B4 (CRP mature R188A)` is recorded as “binds” (C1q (UniProt P02745); cryo-EM structure; together with: CaCl2).
Under binding, `B5 (ATG9 1-100)` is recorded as “binds” (ATG23 Y16E (UniProt Q06671); pull-down; 5 µM, 15 min, pH 8, 4 °C, NaCl 150 mM).
For `B6 (MED1 1-566)`, binding read “binds” (NUT1 1-1132 (Saccharomyces cerevisiae, UniProt P53114); cryo-EM).
`BIN2 (Arabidopsis thaliana, UniProt Q39011)`: binding “binds” (PCK1 S62A/T66A (Arabidopsis thaliana, UniProt Q9T074); BLI; without ATP).
`KESALRKQDLLLLFDPLLR (TACC3 to 568 550-568 S558D/Y560L/K562L (Homo sapiens, UniProt Q9Y6A5); sequence looked up)`: binding “binds” (CLTC 358-574 (Homo sapiens, UniProt Q00610); peptide array; peptide).
`B7 (PSMA3)` — result for binding: “binds” (PSMG2 (Homo sapiens, UniProt Q969U7); cryo-EM).
`B8 (Gspt2 2-632)` — result for binding: “binds” (UPF1 (Homo sapiens, UniProt Q92900); pull-down).
`GEVAKAAKVKC (IL1RAP 339-348 (Homo sapiens); cyclic, C-terminal amide, acetylated N-terminus)` — result for binding: “binds” (IL1RL1/IL33 ST2 , IL-33 19-328; pull-down; peptide).
`ARTKQTARKSTGGKAY (histone H3 residues 1-15; K9me3)`: binding “binds” (ATRX 1-321 E252L (Homo sapiens, UniProt P46100); ITC; peptide; 25 °C).
For `B9 (RAD52 K144A)`, binding read “binds” (SETX (Homo sapiens, UniProt Q7Z333); pull-down).
Under binding, `ESVASHFALVTAYEDIKKRLKDSEKENSLLKKRIRFLEEKLIA (AZI2 33-75 (Homo sapiens, UniProt Q9H6S1))` is recorded as “binds” (CALCOCO2 1-316 (Homo sapiens, UniProt Q13137); AUC (sedimentation velocity)).
Under binding, `ILPSDIMDFVLKNTP (KMT2A N1 helix 2844-2858 (Homo sapiens, UniProt Q03164); FITC label; sequence looked up)` is recorded as “binds” (Crebbp KIX domain 586-672 (Mus musculus, UniProt P45481); fluorescence polarisation; peptide).
For `DQLYQPLKDREDDQYSHLQG (CD3G 157-176; phosphotyrosine)`, binding read “binds” (SYK (Homo sapiens, UniProt P43405); FIDA; peptide).
For `GMP synthase (human)`, “log2 fold change” read 0.94 (PP6C (human); co-immunoprecipitation, IP-MS; CYB5R4 knockout cells; concentration not given; reference: CYB5R4 knockout over parental).
For `B10 (ND4 1-486)`, binding read “binds” (ND5 1-655 (Yarrowia lipolytica, UniProt Q9B6D3); cryo-EM).
Under binding, `B11 (nlpI)` is recorded as “binds” (prc K477A (Escherichia coli, UniProt P23865); cryo-EM).
`B12 (SIR4 1150-1358)`: binding “binds” (SIR2 (Saccharomyces cerevisiae, UniProt P06700); cross-linking mass spectrometry).
For `B13 (CRYBA1)`, binding read “binds” (CRYBB1 (Homo sapiens, UniProt P53674); native MS).
`B5 (ATG9 1-100)`: binding “binds” (ATG23 A34E (Saccharomyces cerevisiae, UniProt Q06671); pull-down; 15 minutes, 4 °C).
